Published values of several laboratories.
Each line is one published result; not all experiments were run side by side. “And” joins repeats or separate records; there may be more than shown. ± marks the error that the study gave.

Structure (SMILES)	assay	system	conditions	how to read	measurement	result
O=C(OC(C(F)(F)F)C(F)(F)F)N1CCN(Cc2cccc(Oc3ccccc3)c2)CC1	PET blocking study	rhesus monkey, brain CB	0.03 mg/kg, compound pretreatment, with: [18F]T-401 tracer	–	Ktrans	0.003 min⁻¹
Cc1ccc(C(=O)N(CCCN)C(c2nc3snc(C)c3c(=O)n2Cc2ccccc2)C(C)C)cc1 (stereo not shown)	pneumonia grade ≥3 (CTCAE)	human patients	intravenous, 10 mg/day	–	patients with adverse event	0%
CC(C)n1c(Nc2cccnc2)nc2cnc(Nc3ccc(N4CCN(C)CC4)cc3)nc21	measured: diastolic blood pressure increased	healthy male subjects	oral, 150 mg, study, with: rifampin	–	subjects with adverse event	7.1%
CN(C(=O)n1cnc(-c2cccnc2)c1)[C@H]1CC[C@H](O)CC1	–	Wistar rat, medulla oblongata	oral, 10 mg/kg/day of BIA 10-2474, 24 h, repeated 5 days	–	concentration	16.1 ± 1.1 ng/g
COc1cc2nccc(Oc3ccc(NC(=O)c4cc5c(n(-c6ccccc6)c4=O)CCCC5=O)nc3)c2cc1OC	–	relapsed or refractory AML	oral, 10 mg once daily	–	grade ≥3 Thrombocytopenia patients	0%
COc1ccc2c(=O)n(C)c(-c3ccccc3)nc2c1	–	male Sprague-Dawley rat, bladder	oral, 30 mg/kg, 0.25 h	–	tissue concentration	71.5 ng/g
COc1cccc(OC)c1-c1cc(C(=O)NC2(C(=O)O)C3CC4CC(C3)CC2C4)nn1-c1ccc(C(=O)N(C)CCCN(C)CCCN(C)C(=O)CN2CCN(CC(=O)[O-])CCN(CC(=O)[O-])CCN(CC(=O)[O-])CC2)cc1C(C)C.[177Lu+3] (stereo not shown)	–	mouse, HT-29 xenograft	4 h post injection, biodistribution	baseline: tumour over blood uptake	tumour-to-blood ratio	1.48
N[C@@H](Cc1ccc(O)cc1)C(=O)O	binding, MIDAS equilibrium dialysis LC-MS	A2AR-BRIL thermostabilized	concentration not given	baseline: no-protein control	log2 fold change	-0.0104
COc1ccc2[nH]c([S+]([O-])Cc3ncc(C)c(OC)c3C)nc2c1 (stereo not shown)	–	healthy Chinese volunteers, CYP2C19 intermediate metabolizers	oral, 20 mg, enteric-coated capsules	–	t1/2	1.17 ± 0.68 h
CCN1/C(=C/C(C)=O)Sc2ccc(F)cc21	–	cynomolgus monkey	oral, 30 mg/kg, 6 h post-dose	–	PR interval	88 ± 3 ms
CCn1c(=O)c(-c2cc(NC(=O)Nc3ccccc3)c(F)cc2Br)cc2cnc(NC)cc21	measured: lipase increased	human, mild hepatic impairment	oral, 50 mg single dose	–	participants with grade ≥ 3 TEAE	37.5%
NCCONC(=O)[C@@H]1CC[C@@H]2CN1C(=O)N2OS(=O)(=O)O	–	human male, urine	intravenous infusion, 1 g single dose	–	amount excreted in urine (0-8 h)	782 mg
Oc1ccc([C@@H](O)c2cc(-c3ncnc4cc(N5CCOCC5)ccc34)c(F)cc2Cl)nn1	–	healthy human volunteers, urine	0-24 h, fasted tablet, geometric mean	baseline: dose	amount excreted in urine	3.4%
CN(CC#N)C(=O)C[C@H](Nc1nc2ccccc2[nH]1)c1cccc(C(F)(F)F)c1	–	human	intravenous infusion, 3 mg/kg, 1 mg/mL formulation	–	apparent clearance	10.4 ± 2.86 L/h
CNC(=O)c1cc(Oc2ccc(NC(=O)Nc3cc(C(C)(C)C)nn3-c3ccc4ncccc4c3)c(F)c2)ccn1	measured: worst grade 3	human	oral, dose not given, cycles 1 and 2, High Cmax subgroup	–	patients with visual abnormality AE	6%
C[Si](C)(C)O[Si](C)(C)O[Si](C)(C)O[Si](C)(C)C	IVIVE from S9	rainbow trout (Oncorhynchus mykiss)	–	–	whole-body biotransformation rate constant	0.015 day⁻¹ and 0.017 day⁻¹ and 0.013 day⁻¹
Cc1c(-c2ccc(N3CCc4cccc(C(=O)Nc5nc6ccccc6s5)c4C3)nc2C(=O)O)cnn1CC12CC3(C)CC(C)(C1)CC(OCCNCC[C@H](O)CO)(C3)C2	–	beagle dog, male, anaesthetised	intravenous infusion, 0.3 mg/kg/min, 30 min	baseline: vehicle	dP/dt at 50 change	-16%
c1ccc2c(c1)ccc1c3ccccc3ccc21	–	polyethylene-water partitioning	PAH compilation	–	literature range of log K	5.37 to 5.91 log units
CC(C)(C(=O)N1CCOc2c(C#N)cncc2C1)C(F)F	–	human, both sexes	oral, 10 mg single dose	–	subjects with headache TEAE	0%
CCc1cc(C(=O)NC)c2nccc(N3CCc4c(cc(Cn5ccnc5)cc4-c4cn(C)nc4C(F)(F)F)C3=O)c2c1	–	Sprague Dawley rats	oral, 100 mg/kg once daily, 7 days	baseline: vehicle	serum TG change	-30.7%

Structure (SMILES)	assay	system	conditions	how to read	measurement	result
Cc1nc2cccc(OCC(C)(C)C(=O)NC(C)C)c2c(N)c1C(=O)O	–	male Swiss albino CD-1 mouse, bone marrow	oral, 500 mg/kg, 36 h	–	PCE/NCE ratio	0.83
CCCC(CCC)C(=O)Oc1cccc(C(O)CCN)c1.O=CO (stereo not shown)	–	Abca4-/-Rdh8-/- mice, photic damage	oral, 20 mg/kg, 7 days, flash intensity 0.05	–	ERG, scotopic, rod b-wave	124 µV and 140 µV and 84.5 µV and 113 µV and 86.8 µV and 116 µV
CCCCC[C@H](O)CC[C@@H]1[C@H]2Cc3cccc(OCC(=O)O)c3C[C@H]2C[C@H]1O	LC-MS/MS	Japanese PAH patients, plasma	inhaled, 54 µg	–	geometric mean Cmax	0.99 ng/mL
CC(C)NCCCC[C@@H]1NC(=O)[C@H](Cc2ccc(O)cc2)NC(=O)[C@H](Cc2ccccc2)NC(=O)CC[C@H](C(=O)N[C@@H](CCCCNC(C)C)C(=O)N[C@@H](CCCCNC(=O)[C@H](CCC(=O)O)NC(=O)[C@H](CCC(=O)O)NC(=O)[C@H](CCC(=O)O)NC(=O)CN2CCN(CC(=O)O)CCN(CC(=O)O)CCN(CC(=O)O)CC2)C(N)=O)NC(=O)CNC(=O)[C@H](Cc2ccc3ccccc3c2)NC(=O)[C@@H](CCCNC(=N)N)NC1=O [gallium-68 labelled]	–	mouse with JeKo-1 xenograft, spleen	intravenous, 1 h	–	tissue uptake	0.59 %ID/g
CC(C(=O)NCC(=O)NCC(CNC(=O)CNC(=O)C(C)N1CCN(CC(=O)[O-])CCN(CC(=O)[O-])CCN(CC(=O)[O-])CC1)(CNC(=O)CNC(=O)C(C)N1CCN(CC(=O)[O-])CCN(CC(=O)[O-])CCN(CC(=O)[O-])CC1)CNC(=O)CNC(=O)C(C)N1CCN(CC(=O)[O-])CCN(CC(=O)[O-])CCN(CC(=O)[O-])CC1)N1CCN(CC(=O)[O-])CCN(CC(=O)[O-])CCN(CC(=O)[O-])CC1.[Gd+3].[Gd+3].[Gd+3].[Gd+3] (stereo not shown)	–	cynomolgus monkey, muscle	dose not given, day 5	–	lanthanide tissue concentration	0.11 ± 0.028 nmol/g
CNCCOC12CC3(C)CC(C)(CC(Cn4ncc(-c5ccc(N6CCc7cccc(C(=O)Nc8nc9ccccc9s8)c7C6)nc5C(=O)O)c4C)(C3)C1)C2	–	anaesthetised male beagle dogs	intravenous bolus, 0.03 mg/kg, 75 min	baseline: baseline	systemic vascular resistance change	26%
C[C@@H](Oc1ccc(S(C)(=O)=O)cc1C(=O)N1C[C@@H]2C[C@]2(c2cc(C(F)(F)F)on2)C1)C(F)(F)F	–	elderly humans, urine	oral, 25 mg once daily, 0-24 h, multiple dose, geometric mean	–	renal clearance at steady state	5.26 mL/min
CN1C(=O)[C@@H](NC(=O)c2nnc(Cc3ccccc3)[nH]2)COc2cccnc21	–	human, plasma	oral, 50 mg once daily, day 1, geometric mean	–	Cmax	1090 ng/mL
CNC(=O)c1cc(Oc2ccc(NC(=O)Nc3ccc(Cl)c(C(F)(F)F)c3)c(F)c2)cc[n+]1[O-]	long-term stability	mouse plasma	750 ng/mL, 6 months, -80 °C	–	accuracy	93.5%
O=C(O)c1ccc(O)cc1	binding, MIDAS equilibrium dialysis LC-MS	A2AR-BRIL thermostabilized	concentration not given	baseline: no-protein control	log2 fold change	-0.308
CCc1c(-c2ccccc2)c(-c2ccccc2)nn1-c1ccccc1-c1cccc(OCC(=O)O)c1	–	male Sprague-Dawley rat, testis homogenate	oral, 10 mg/kg, 8 h	–	concentration	30.9 ng/mL
C[C@H]1Oc2cc(cnc2N)-c2c(nn(C)c2C#N)CN(C)C(=O)c2ccc(F)cc21	–	Balb/c nude mouse female, plasma	5 mg/kg single dose, 12 h	–	free plasma concentration	57.8 nM
O=C(O)CCC(=O)O.[2H]C([2H])([2H])Oc1cc(C)c2[nH]ccc2c1CN1CC[C@@H](C2CC2)C[C@H]1c1ccc(C(=O)O)cc1	multiple ascending dose	healthy Chinese subjects	125 mg twice daily	–	subjects with elevated bilirubin TEAE	0%
Cc1nc(-c2ccc(OCC(C)C)c(C#N)c2)sc1C(=O)O	–	healthy Chinese subjects, fasted	oral, 40 mg single dose	–	subjects with hypertriglyceridaemia	2.6%
COc1ncc(-c2nc3c(n2C(C)C)[C@H](c2ccc(Cl)cc2)N(c2cc(Cl)cn(C)c2=O)C3=O)c(OC)n1	LC-MS/MS, noncompartmental	human, plasma	oral, 120 mg, cycle 1 day 1, high-dose, geometric mean	–	AUC(0-last)	18500 ng·h/mL
COc1cc2c3c(n(CCCN4CCOCC4)c(=O)c2cc1OC)-c1cc2c(cc1C3=O)OCO2	–	Fischer 344 rats, female	intravenous bolus, 24 mg/m^2	–	volume of distribution	194 L/m²
O=C(Nc1nc2cccc(-c3ccc(CN4CCS(=O)(=O)CC4)cc3)n2n1)C1CC1	measured: cardiac disorders	human rheumatoid arthritis patients	oral, 200 mg once daily, 4 weeks, regardless of relatedness	–	treatment-emergent adverse events	0%
O=C(O)C1=CO[C@@H](O[C@@H]2O[C@H](CO)[C@@H](O)[C@H](O)[C@H]2O)[C@@H]2C(CO)=CC[C@H]12	–	rat plasma	200 ng/mL, 2 weeks, -70 °C, post-preparative stability	–	accuracy	103%
Cl.[2H]C([2H])([2H])CC(=O)c1cnc(NC(=O)C2CC2)cc1Nc1cccc(-c2ncn(C([2H])([2H])[2H])n2)c1OC	geometric mean	human	oral, 20 mg twice daily, day 7, fed, liquid, multiple dose	–	Vz/F	142 L
FC(F)(F)c1ccc(CNc2ccc(Cc3c[nH]c4ncc(Cl)cc34)cn2)cn1	–	patients with advanced solid tumours	oral, 1000 mg/day, non-TGCT cohort, grade ≥3	–	cognitive disorder incidence	0%

For quick reference, copied from above:
Structure (SMILES)	assay	system	conditions	how to read	measurement	result
Oc1ccc([C@@H](O)c2cc(-c3ncnc4cc(N5CCOCC5)ccc34)c(F)cc2Cl)nn1	–	healthy human volunteers, urine	0-24 h, fasted tablet, geometric mean	baseline: dose	amount excreted in urine	3.4%
N[C@@H](Cc1ccc(O)cc1)C(=O)O	binding, MIDAS equilibrium dialysis LC-MS	A2AR-BRIL thermostabilized	concentration not given	baseline: no-protein control	log2 fold change	-0.0104
c1ccc2c(c1)ccc1c3ccccc3ccc21	–	polyethylene-water partitioning	PAH compilation	–	literature range of log K	5.37 to 5.91 log units
Cc1ccc(C(=O)N(CCCN)C(c2nc3snc(C)c3c(=O)n2Cc2ccccc2)C(C)C)cc1 (stereo not shown)	pneumonia grade ≥3 (CTCAE)	human patients	intravenous, 10 mg/day	–	patients with adverse event	0%
COc1cc2nccc(Oc3ccc(NC(=O)c4cc5c(n(-c6ccccc6)c4=O)CCCC5=O)nc3)c2cc1OC	–	relapsed or refractory AML	oral, 10 mg once daily	–	grade ≥3 Thrombocytopenia patients	0%
NCCONC(=O)[C@@H]1CC[C@@H]2CN1C(=O)N2OS(=O)(=O)O	–	human male, urine	intravenous infusion, 1 g single dose	–	amount excreted in urine (0-8 h)	782 mg
